Results of several laboratories.
Each line is one published result; not all experiments were run side by side. Substitutions count along the parent as printed. Numbers after ± are the reported error.
DNMT1: DNMT1 1-1616 (Homo sapiens, UniProt P26358)
Chain of UniProt P26358 (whole entry, looked up): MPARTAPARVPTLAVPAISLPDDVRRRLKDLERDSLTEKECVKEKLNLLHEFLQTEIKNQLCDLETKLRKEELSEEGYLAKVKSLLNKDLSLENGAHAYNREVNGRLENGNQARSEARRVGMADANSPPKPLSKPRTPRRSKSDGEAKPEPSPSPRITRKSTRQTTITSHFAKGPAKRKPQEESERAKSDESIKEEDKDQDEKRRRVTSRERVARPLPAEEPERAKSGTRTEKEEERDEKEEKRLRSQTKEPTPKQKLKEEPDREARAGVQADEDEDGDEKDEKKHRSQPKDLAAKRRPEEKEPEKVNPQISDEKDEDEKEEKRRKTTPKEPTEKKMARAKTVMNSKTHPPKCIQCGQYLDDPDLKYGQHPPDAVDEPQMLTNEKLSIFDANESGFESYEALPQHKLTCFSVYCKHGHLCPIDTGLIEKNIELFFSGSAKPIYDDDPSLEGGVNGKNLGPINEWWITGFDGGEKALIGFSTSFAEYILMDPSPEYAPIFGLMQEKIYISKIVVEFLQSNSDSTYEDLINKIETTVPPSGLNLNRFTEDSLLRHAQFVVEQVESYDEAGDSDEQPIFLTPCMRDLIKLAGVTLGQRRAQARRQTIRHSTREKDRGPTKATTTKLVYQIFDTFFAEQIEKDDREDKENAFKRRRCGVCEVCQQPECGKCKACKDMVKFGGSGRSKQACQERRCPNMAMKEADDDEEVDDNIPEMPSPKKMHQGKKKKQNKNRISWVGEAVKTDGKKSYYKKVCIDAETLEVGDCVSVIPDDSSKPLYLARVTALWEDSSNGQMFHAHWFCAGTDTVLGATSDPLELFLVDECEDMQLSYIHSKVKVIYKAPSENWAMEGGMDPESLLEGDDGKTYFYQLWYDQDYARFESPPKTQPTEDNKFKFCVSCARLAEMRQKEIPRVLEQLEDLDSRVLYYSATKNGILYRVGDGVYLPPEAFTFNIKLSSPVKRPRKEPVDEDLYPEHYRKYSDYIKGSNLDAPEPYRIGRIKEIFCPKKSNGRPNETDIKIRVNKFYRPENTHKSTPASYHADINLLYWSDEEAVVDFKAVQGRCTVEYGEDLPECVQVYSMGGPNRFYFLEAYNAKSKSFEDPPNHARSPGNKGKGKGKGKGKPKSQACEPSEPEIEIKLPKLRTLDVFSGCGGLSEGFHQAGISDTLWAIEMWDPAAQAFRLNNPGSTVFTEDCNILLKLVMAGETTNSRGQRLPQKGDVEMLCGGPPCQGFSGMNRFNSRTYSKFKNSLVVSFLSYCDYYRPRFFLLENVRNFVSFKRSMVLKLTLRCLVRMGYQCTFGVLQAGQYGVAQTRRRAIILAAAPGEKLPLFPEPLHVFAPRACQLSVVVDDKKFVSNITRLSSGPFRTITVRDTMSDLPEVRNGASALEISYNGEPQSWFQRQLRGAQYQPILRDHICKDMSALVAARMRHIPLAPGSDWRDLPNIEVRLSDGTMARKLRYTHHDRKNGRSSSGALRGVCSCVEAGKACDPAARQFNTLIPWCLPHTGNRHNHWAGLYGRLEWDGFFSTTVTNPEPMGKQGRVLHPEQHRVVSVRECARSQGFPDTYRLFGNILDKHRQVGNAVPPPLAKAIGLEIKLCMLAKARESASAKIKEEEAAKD
NAC transcription factor full length assumed: NAC transcription factor full length assumed (Triticum aestivum, UniProt A0A7G7XYH6)
gabR full length assumed: gabR full length assumed (Bacillus subtilis, UniProt P94426)
Chain of UniProt P94426 (whole entry, looked up): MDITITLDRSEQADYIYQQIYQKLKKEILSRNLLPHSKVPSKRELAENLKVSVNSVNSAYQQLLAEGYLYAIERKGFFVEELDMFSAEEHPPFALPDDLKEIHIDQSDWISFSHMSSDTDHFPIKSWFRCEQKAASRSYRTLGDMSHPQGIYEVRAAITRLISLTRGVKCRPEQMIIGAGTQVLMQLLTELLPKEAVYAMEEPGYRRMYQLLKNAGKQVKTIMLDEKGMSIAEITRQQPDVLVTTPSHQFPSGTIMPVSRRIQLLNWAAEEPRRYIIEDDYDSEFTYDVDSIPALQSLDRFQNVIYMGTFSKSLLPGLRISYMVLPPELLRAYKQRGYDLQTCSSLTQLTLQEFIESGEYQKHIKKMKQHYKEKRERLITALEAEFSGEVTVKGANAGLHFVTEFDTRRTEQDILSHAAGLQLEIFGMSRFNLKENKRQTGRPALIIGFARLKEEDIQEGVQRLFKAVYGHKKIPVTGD
T1: cas1/cas2 1-305; 1-94 (Escherichia coli); chain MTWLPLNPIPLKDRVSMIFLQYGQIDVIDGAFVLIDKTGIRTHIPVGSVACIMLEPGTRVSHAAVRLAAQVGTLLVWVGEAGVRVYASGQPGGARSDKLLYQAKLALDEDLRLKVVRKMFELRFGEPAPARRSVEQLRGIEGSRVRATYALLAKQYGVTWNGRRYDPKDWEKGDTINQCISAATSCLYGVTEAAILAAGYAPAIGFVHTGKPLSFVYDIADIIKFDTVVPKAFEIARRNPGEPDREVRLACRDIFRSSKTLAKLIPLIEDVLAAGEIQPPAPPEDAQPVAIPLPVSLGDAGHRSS; chain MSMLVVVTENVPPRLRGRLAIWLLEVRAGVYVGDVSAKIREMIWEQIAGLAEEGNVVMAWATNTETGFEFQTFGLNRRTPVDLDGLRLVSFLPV
P1: SNF1 residues 54-391 (Saccharomyces cerevisiae); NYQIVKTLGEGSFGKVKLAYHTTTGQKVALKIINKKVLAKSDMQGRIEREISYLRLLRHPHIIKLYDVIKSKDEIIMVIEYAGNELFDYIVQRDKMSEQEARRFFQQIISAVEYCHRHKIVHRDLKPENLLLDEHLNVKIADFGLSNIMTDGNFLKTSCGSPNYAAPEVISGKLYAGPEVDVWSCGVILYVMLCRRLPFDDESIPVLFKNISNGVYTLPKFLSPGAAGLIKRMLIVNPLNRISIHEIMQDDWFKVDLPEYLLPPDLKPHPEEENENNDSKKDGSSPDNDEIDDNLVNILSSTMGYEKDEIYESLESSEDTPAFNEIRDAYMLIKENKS; partner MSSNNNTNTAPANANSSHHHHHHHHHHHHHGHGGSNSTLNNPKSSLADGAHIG
P2: APOBEC3G/EYFP (Homo sapiens); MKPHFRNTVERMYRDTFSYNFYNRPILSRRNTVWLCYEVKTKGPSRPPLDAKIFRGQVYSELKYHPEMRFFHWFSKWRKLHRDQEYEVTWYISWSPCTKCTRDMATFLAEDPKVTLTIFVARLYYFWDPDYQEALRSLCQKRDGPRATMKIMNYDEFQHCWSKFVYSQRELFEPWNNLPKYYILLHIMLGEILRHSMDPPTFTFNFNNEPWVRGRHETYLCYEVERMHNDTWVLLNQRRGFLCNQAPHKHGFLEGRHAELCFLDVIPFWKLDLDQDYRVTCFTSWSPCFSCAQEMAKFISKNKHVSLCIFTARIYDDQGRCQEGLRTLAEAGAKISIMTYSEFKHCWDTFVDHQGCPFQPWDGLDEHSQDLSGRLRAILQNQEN; partner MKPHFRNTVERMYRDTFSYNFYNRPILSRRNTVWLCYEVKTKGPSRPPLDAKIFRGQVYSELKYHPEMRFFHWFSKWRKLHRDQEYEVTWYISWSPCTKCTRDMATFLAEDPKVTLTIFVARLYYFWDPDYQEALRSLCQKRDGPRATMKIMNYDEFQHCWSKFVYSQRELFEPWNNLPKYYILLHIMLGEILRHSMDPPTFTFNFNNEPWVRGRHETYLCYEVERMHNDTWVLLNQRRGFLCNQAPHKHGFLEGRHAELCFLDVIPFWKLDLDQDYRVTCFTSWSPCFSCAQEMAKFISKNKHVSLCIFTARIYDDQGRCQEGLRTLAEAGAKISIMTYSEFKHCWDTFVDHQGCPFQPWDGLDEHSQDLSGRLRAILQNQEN
Chain of UniProt Q9NR56 (whole entry, unmodified, looked up): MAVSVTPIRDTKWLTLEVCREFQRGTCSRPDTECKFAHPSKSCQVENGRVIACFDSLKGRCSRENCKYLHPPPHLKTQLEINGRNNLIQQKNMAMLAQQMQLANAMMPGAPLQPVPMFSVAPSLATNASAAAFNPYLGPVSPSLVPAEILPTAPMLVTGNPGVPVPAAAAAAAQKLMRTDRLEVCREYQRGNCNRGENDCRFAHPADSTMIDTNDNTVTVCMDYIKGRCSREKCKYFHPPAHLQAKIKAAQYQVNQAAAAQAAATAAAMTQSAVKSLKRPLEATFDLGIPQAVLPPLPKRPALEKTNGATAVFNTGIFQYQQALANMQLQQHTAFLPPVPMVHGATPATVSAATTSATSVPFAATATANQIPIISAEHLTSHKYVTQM
Chain of UniProt P19838 (whole entry, looked up): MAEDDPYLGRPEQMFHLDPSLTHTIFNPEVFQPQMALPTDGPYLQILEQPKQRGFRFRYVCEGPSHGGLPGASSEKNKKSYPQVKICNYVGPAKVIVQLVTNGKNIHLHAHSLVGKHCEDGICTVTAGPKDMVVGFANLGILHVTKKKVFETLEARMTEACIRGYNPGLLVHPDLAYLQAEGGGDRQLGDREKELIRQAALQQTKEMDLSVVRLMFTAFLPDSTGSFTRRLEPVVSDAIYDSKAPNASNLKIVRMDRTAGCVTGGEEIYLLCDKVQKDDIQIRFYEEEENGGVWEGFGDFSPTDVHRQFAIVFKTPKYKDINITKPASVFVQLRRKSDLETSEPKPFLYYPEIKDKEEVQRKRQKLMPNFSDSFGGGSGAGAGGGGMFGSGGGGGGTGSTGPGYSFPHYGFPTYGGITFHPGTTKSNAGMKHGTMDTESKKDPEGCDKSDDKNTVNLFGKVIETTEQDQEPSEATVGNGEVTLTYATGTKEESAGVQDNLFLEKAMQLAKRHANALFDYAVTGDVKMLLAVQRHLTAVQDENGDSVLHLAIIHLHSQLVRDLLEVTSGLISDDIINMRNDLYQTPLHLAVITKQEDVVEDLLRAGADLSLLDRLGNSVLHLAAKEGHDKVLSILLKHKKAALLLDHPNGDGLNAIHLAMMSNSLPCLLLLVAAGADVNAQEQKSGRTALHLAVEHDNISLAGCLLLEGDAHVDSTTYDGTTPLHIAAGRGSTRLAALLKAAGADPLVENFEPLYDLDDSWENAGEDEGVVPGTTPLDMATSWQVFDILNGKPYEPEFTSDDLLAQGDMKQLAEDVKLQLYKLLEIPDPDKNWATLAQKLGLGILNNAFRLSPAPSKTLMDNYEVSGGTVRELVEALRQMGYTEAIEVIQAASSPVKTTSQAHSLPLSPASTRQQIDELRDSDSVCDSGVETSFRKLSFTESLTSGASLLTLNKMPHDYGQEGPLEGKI
Chain of UniProt P0AE01 (whole entry, looked up): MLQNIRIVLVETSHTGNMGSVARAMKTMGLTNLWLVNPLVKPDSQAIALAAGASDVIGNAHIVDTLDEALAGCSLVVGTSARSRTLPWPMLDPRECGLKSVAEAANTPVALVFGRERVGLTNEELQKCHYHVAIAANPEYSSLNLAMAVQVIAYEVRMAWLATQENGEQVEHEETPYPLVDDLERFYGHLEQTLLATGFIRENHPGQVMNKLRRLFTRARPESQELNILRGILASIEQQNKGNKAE
Chain of UniProt P08199 (whole entry, looked up): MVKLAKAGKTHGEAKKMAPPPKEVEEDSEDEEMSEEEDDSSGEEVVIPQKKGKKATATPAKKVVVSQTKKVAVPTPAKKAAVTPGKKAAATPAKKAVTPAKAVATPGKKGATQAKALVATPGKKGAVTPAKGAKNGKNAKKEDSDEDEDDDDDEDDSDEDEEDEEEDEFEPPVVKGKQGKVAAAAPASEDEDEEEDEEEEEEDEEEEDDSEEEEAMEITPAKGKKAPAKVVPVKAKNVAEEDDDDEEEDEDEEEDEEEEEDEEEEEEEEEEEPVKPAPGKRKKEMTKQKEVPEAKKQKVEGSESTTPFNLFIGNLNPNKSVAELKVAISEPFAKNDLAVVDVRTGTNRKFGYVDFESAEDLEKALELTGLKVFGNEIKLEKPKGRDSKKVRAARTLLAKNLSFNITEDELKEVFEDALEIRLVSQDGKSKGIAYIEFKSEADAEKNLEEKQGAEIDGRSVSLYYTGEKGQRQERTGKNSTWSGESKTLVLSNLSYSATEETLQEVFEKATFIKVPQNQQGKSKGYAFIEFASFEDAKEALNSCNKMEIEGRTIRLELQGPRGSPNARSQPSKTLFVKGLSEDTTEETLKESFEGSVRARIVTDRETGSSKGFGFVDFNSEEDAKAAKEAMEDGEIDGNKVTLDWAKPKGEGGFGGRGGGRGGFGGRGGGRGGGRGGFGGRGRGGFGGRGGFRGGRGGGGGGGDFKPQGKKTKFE
Chain of UniProt P36873 (whole entry, looked up): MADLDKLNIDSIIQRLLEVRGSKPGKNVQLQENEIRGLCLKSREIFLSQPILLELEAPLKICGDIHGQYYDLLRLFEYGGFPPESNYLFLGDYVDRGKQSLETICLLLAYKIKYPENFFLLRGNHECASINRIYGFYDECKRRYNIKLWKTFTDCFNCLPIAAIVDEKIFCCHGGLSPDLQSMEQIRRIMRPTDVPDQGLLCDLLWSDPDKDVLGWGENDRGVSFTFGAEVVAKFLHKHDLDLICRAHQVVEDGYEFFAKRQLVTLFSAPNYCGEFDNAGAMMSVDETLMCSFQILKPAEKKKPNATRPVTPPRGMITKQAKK

Under binding, `CGCGCGCGCGCGAGCGAGCGG (ssDNA; single strand, non-G4)` is recorded as “no binding” (DNMT1; ELISA; single-stranded DNA).
For `GGAUGCCUCCCGAGUGCAUCC (structured RNA)`, binding read “binds” (NCL 299-459 (Mesocricetus auratus, UniProt P08199); NMR; folded RNA).
`AGTTGAGGGGACTTTCCCAGGC (dsDNA)` — result for binding: “binds” (NFKB1 1-433 (Homo sapiens, UniProt P19838); competition DSE-FRET; double-stranded DNA, one strand shown).
For `TGAGCGTGCGTAGCGTGCGTAA (ssDNA; single strand, non-G4)`, binding read “no binding” (DNMT1; ELISA; single-stranded DNA).
`CCUCCGCUGC (ssRNA (Homo sapiens))`: binding “binds” (MBNL1 1-92 F36A (Homo sapiens, UniProt Q9NR56); NMR titration; RNA).
`TATATGGGTTTAATATTGACAAGAAACAAGCTGCT (dsDNA)`: binding “no binding” (NAC transcription factor full length assumed; competition EMSA; double-stranded DNA, one strand shown).
`CTTCTGATACCATCAAAAAGTTATAATTGGTACTTTTCATCATACCAAAGAGAAGTCAGAATGATAAGAAAATACCG (dsDNA (Bacillus subtilis); nicked duplex)` has a Kd of 13 ± 0.9 nM (gabR full length assumed; BLI; double-stranded DNA, one strand shown; added: GABA).
`CCUGUCUCGCUUUUCCCCUCCGCUGCGGCCAC (ssRNA (Homo sapiens); hairpin)` — result for binding: “binds” (MBNL1 1-255 (Homo sapiens, UniProt Q9NR56); NMR titration; folded RNA).
For `P1 T157A`, the relative interaction was 2% (GAL4 BD/SNF1 residues 1-53 (Saccharomyces cerevisiae); yeast two-hybrid; read off a plot; relative to: NTD/CTD on glucose, higher = stronger interaction).
`CTTCTGATACCATCAAAAAGTTATAATTCCTACTTTTCATCATACCAAAGAGAAGTCAGAATGATAAGAAAATACCG (dsDNA (Bacillus subtilis))` has a Kd of 44 ± 21 nM (gabR full length assumed; BLI; double-stranded DNA, one strand shown).
For `GGGAGUGUGUACGAGGCAUUAGGCCGCCGAUGGUUUUGUGGCCGUUUGAGGUUCCUACGGCGGCUU (structured RNA; 2'-fluoro C/U, 3' inverted dT)`, binding read “binds” (FGFR3 23-375 (Homo sapiens, UniProt P22607); bead flow cytometry; folded RNA; 100 nM).
For `P2 Y124A`, the relative binding was 0.3 (APOBEC3G Renilla luciferase fusion (Homo sapiens); BRET; 293T; read off a plot; relative to: unchanged protein, higher = more binding).
For `CCGCCGAUGGUUUUGUGGCCGUUUGAGGUUCCUACGGCGG (structured RNA; hairpin, 2'-fluoro C/U, 3' inverted dT)`, binding read “binds” (Fgfr3 21-369 (Mus musculus, UniProt Q61851); bead flow cytometry; folded RNA; 100 nM).
`DNA 1 ATTTCAGCTACTCCGATGGCCCATATGCGGATC / DNA 2 GCATATGGGCCATCGGAGTAGCT (dsDNA)`: binding “binds” (T1, cas1/cas2 1-305; 1-94 (Escherichia coli); EMSA; double-stranded DNA; binary complex, partial dissociation).
For `AGGGGGCCGUGGGGUGGGAGCUGGGG (G-quadruplex RNA; G4)`, binding read “binds” (PPP1CC (Homo sapiens, UniProt P36873); EMSA; folded RNA; 100 nM).
`CGCGGGGUGGAGCAGCCUGGUAGCUCGUCGGGCUCAUAACCCGAAGAUCGUCGGUUCAAAUCCGGCCCCCGCAACCA (tRNA (Escherichia coli); cloverleaf, unmodified)`: binding “no binding” (trmJ 1-170 (Escherichia coli, UniProt P0AE01); EMSA; folded RNA; Mg2+ 5 mM, added: sinefungin 500 µM).
`DNA 1 CCACTGCTCACGTACAGAGCTGT / DNA 2 CAGCTCTGTACGTGAGCAGTGGA (dsDNA; 5mC opposite G, 23 bp)`: binding “no binding” (TDG 111-308 N140A (Homo sapiens, UniProt Q13569); EMSA; double-stranded DNA).
`TATATGTTGTTAATATTGACAAGACCAAAGCTGCT (dsDNA)` — result for binding: “no binding” (NAC transcription factor full length assumed; competition EMSA; double-stranded DNA, one strand shown).
`TTGTTAACACGTGATTTTGT (dsDNA)` — result for binding: “binds” (protein (Oryza sativa, UniProt Q7XXC1); EMSA; double-stranded DNA, one strand shown).

A few entries again:
For `P1 T157A`, the relative interaction was 2% (GAL4 BD/SNF1 residues 1-53 (Saccharomyces cerevisiae); yeast two-hybrid; read off a plot; relative to: NTD/CTD on glucose, higher = stronger interaction).
`CTTCTGATACCATCAAAAAGTTATAATTCCTACTTTTCATCATACCAAAGAGAAGTCAGAATGATAAGAAAATACCG (dsDNA (Bacillus subtilis))` has a Kd of 44 ± 21 nM (gabR full length assumed; BLI; double-stranded DNA, one strand shown).
